Published values collected from several papers.
Protocols differ between the studies behind these lines.
Chain of UniProt P42679 (whole entry, looked up): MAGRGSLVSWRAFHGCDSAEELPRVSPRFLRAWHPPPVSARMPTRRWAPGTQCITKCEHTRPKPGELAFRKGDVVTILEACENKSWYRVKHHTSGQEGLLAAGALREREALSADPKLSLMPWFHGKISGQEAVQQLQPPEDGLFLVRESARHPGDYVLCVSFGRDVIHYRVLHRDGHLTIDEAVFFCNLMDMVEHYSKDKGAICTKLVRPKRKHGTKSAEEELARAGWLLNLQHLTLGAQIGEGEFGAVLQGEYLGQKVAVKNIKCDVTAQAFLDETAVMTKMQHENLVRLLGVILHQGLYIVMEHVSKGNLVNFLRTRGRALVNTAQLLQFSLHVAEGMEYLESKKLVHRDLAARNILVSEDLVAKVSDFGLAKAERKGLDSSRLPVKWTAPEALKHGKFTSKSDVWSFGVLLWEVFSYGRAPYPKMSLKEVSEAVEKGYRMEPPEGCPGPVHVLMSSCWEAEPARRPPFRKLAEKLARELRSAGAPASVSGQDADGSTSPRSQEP
Chain of UniProt O96017 (whole entry, looked up): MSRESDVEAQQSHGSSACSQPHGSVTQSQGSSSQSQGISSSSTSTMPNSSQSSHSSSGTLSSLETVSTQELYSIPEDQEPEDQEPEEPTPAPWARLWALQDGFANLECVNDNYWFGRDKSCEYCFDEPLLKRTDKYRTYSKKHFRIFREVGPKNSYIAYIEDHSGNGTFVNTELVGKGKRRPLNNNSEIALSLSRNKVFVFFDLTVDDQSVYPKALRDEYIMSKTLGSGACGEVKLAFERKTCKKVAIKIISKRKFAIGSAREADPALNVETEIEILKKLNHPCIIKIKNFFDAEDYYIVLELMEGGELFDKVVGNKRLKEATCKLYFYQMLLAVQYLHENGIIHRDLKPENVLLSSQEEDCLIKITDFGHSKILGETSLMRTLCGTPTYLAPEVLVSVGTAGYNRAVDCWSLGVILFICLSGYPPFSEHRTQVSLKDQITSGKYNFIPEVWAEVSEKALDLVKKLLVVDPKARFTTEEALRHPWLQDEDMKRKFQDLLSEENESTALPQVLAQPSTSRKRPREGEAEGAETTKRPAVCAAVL
Chain of UniProt Q9UBN7 (whole entry, looked up): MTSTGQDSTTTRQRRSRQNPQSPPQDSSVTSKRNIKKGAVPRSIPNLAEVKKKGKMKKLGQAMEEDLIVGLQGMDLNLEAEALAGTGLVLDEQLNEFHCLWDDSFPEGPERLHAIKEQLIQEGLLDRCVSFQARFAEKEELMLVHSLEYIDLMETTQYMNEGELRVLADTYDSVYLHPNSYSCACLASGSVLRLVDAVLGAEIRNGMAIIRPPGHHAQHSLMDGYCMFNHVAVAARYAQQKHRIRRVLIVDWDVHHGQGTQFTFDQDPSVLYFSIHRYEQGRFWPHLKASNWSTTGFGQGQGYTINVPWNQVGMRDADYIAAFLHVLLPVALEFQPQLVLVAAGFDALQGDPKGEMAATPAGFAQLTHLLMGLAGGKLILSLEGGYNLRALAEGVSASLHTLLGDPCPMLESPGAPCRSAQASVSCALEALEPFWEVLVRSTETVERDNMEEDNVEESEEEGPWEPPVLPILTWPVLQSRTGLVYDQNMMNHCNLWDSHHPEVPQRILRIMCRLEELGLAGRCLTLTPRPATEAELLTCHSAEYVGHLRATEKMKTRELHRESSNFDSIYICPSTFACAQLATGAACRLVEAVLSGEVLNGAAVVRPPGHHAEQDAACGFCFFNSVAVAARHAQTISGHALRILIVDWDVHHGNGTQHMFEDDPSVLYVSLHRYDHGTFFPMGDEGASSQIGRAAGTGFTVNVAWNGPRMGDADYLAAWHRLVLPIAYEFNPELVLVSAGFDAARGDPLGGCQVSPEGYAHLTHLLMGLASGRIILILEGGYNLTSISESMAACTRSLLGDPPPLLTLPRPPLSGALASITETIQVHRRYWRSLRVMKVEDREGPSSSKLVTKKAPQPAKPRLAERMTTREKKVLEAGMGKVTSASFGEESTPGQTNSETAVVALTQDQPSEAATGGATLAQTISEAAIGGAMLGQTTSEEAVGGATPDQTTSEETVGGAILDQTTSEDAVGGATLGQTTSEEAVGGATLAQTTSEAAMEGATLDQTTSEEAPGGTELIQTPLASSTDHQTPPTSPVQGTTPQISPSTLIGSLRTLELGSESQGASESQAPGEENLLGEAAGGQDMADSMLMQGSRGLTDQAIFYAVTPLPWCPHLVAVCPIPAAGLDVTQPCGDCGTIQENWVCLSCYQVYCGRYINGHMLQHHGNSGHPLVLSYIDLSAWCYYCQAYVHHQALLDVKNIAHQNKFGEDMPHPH

Compound	target or system	assay	system	conditions	quantity	value
CNc1ncc2c(/C=C/C(=O)N3CCC(OC)CC3)nn(Cc3cccc(C(F)(F)F)c3)c2n1	MATK (Homo sapiens, UniProt P42679)	enzyme activity, inhibitor, radiometric	–	1 µM	remaining activity	102%
Cc1cc(NS(=O)(=O)c2ccc(N=NN(C)O)cc2)no1	–	ABTS scavenging	–	60 µg/mL	inhibition	27.8%
C[C@@H](O)[C@H](NC(=O)[C@H](Cc1ccc(O)cc1)NC(=O)[C@H](Cc1ccc(O)cc1)NC(=O)[C@H](CO)NC(=O)[C@H](CCCNC(=N)N)NC(=O)[C@H](Cc1c[nH]cn1)NC(=O)[C@@H](N)Cc1c[nH]c2ccccc12)C(=O)N[C@@H](Cc1c[nH]c2ccccc12)C(=O)N[C@@H](CC(N)=O)C(=O)NCCCC[C@H](NC(=O)[C@H](CCCCNC(=O)[C@H](CC(N)=O)NC(=O)[C@H](Cc1c[nH]c2ccccc12)NC(=O)[C@@H](NC(=O)[C@H](Cc1ccc(O)cc1)NC(=O)[C@H](Cc1ccc(O)cc1)NC(=O)[C@H](CO)NC(=O)[C@H](CCCNC(=N)N)NC(=O)[C@H](Cc1c[nH]cn1)NC(=O)[C@@H](N)Cc1c[nH]c2ccccc12)[C@@H](C)O)NC(=O)[C@H](CC(N)=O)NC(=O)[C@H](Cc1c[nH]c2ccccc12)NC(=O)[C@@H](NC(=O)[C@H](Cc1ccc(O)cc1)NC(=O)[C@H](Cc1ccc(O)cc1)NC(=O)[C@H](CO)NC(=O)[C@H](CCCNC(=N)N)NC(=O)[C@H](Cc1c[nH]cn1)NC(=O)[C@@H](N)Cc1c[nH]c2ccccc12)[C@@H](C)O)C(=O)N[C@@H](CCCCN)C(=O)N[C@@H](CCCCN)C(N)=O	–	chemical stability	human, serum	20 µM, 1 h	compound remaining	25%
O=C(Nc1ccc(CN2CCOCC2)c(C(F)(F)F)c1)c1ccc(C#Cc2cccc3cnccc23)cn1	–	metabolic stability	mouse, liver microsomes	30 min	compound remaining	21.8%
C[C@@H](O)[C@H](NC(=O)[C@H](Cc1ccc(O)cc1)NC(=O)[C@H](Cc1ccc(O)cc1)NC(=O)[C@H](CO)NC(=O)[C@H](CCCNC(=N)N)NC(=O)[C@H](Cc1c[nH]cn1)NC(=O)[C@@H](N)Cc1c[nH]c2ccccc12)C(=O)N[C@@H](Cc1c[nH]c2ccccc12)C(=O)N[C@@H](CC(N)=O)C(=O)NCCCC[C@H](NC(=O)[C@H](CC(N)=O)NC(=O)[C@H](Cc1c[nH]c2ccccc12)NC(=O)[C@@H](NC(=O)[C@H](Cc1ccc(O)cc1)NC(=O)[C@H](Cc1ccc(O)cc1)NC(=O)[C@H](CO)NC(=O)[C@H](CCCNC(=N)N)NC(=O)[C@H](Cc1c[nH]cn1)NC(=O)[C@@H](N)Cc1c[nH]c2ccccc12)[C@@H](C)O)C(=O)NCCCC[C@H](NC(=O)[C@H](CCCCNC(=O)[C@H](CC(N)=O)NC(=O)[C@H](Cc1c[nH]c2ccccc12)NC(=O)[C@@H](NC(=O)[C@H](Cc1ccc(O)cc1)NC(=O)[C@H](Cc1ccc(O)cc1)NC(=O)[C@H](CO)NC(=O)[C@H](CCCNC(=N)N)NC(=O)[C@H](Cc1c[nH]cn1)NC(=O)[C@@H](N)Cc1c[nH]c2ccccc12)[C@@H](C)O)NC(=O)[C@H](CC(N)=O)NC(=O)[C@H](Cc1c[nH]c2ccccc12)NC(=O)[C@@H](NC(=O)[C@H](Cc1ccc(O)cc1)NC(=O)[C@H](Cc1ccc(O)cc1)NC(=O)[C@H](CO)NC(=O)[C@H](CCCNC(=N)N)NC(=O)[C@H](Cc1c[nH]cn1)NC(=O)[C@@H](N)Cc1c[nH]c2ccccc12)[C@@H](C)O)C(=O)N[C@@H](CCCCN)C(=O)N[C@@H](CCCCN)C(=O)N[C@@H](CCCCN)C(N)=O	–	chemical stability	human, serum	20 µM, 4 h	compound remaining	28%
O=C(NO)c1cc(F)cc(OS(=O)(=O)Oc2ccc(Oc3ccccc3)cc2)c1	HDAC6 (Homo sapiens, UniProt Q9UBN7)	enzyme activity, inhibitor, fluorescence	–	–	IC50	2650 nM
CC(C)[N+](C)(CCOC(=O)C1c2ccccc2Oc2ccccc21)C(C)C	–	metabolic stability	human, plasma	30 min	compound remaining	52.2%
Cc1ncsc1-c1ccc(CNC(=O)[C@@H]2C[C@@H](O)CN2C(=O)[C@@H](NC(=O)CCCCCCCCCCNC(=O)O[C@H]2C[C@@H](C)C=C3C=C[C@H](C)[C@H](CC[C@@H]4C[C@@H](O)CC(=O)O4)[C@H]32)C(C)(C)C)cc1	–	metabolic stability	mouse, liver microsomes	1 µM, 30 min, pH 7.4	compound remaining	4.34%
Cc1ccc(Cn2cc(C(=O)NN)c(=O)c3cc(Oc4ccccc4)ccc32)cc1	–	metabolic stability	human, liver microsomes	1 µM, 30 min	compound remaining	> 99%
N#C[C@@]12C[C@@H]1[C@@H](n1cnc3c(N[C@@H](C4CCC4)C4CC4)nc(I)nc31)[C@H](O)[C@@H]2O	–	metabolic stability	human, liver microsomes	1 h	compound remaining	68.1%
COc1cccc(-c2n[nH]c(SCc3ccccn3)n2)c1OC	–	–	male Sprague-Dawley rat, plasma	intravenous, 1 mg/kg, 1.98 min, single dose	concentration	10900 ng/mL
C[C@@H](O)[C@H](NC(=O)[C@H](Cc1ccc(O)cc1)NC(=O)[C@H](Cc1ccc(O)cc1)NC(=O)[C@H](CO)NC(=O)[C@H](CCCNC(=N)N)NC(=O)[C@H](Cc1c[nH]cn1)NC(=O)[C@@H](N)Cc1c[nH]c2ccccc12)C(=O)N[C@@H](Cc1c[nH]c2ccccc12)C(=O)N[C@@H](CC(N)=O)C(N)=O	–	chemical stability	human, serum	20 µM, 1 h	compound remaining	10.8%
O=C(c1ccc(F)cc1)C1CCN(CCn2c(=O)[nH]c3ccccc3c2=O)CC1	–	metabolic stability, mass spectrometry	mouse, liver microsomes	45 min	compound remaining	28.5%
O=C(O)Cc1ccccc1Nc1c(Cl)cccc1Cl	–	metabolic stability	human, liver microsomes	2 µM, 7 min, pH 7.4	compound remaining	71%
C=CC(=O)N1CCC(COCC(=O)N2CCN(c3nc(-c4cnc(N)nc4C(F)F)nc(N4CCOC[C@@H]4C)n3)CC2)CC1	CHEK2 (Homo sapiens, UniProt O96017)	binding, competition with immobilised ligand	–	1 µM	remaining binding	94%
COc1cc(-c2cncc3c2CN(C)Cc2cc(N4CCNCC4)ccc2-3)cc(OC)c1OC	MET (Homo sapiens, UniProt P08581, D1228H)	enzyme activity, inhibitor	–	1 µM	remaining activity	94%
O=C(N1CCCCC1)C12CC(c3ccccc3)(C1)C2	–	metabolic stability	human, liver microsomes	2 µM, 40 min, pH 7.4	compound remaining	67%
NS(=O)(=O)c1nnc(NC(=O)CCC2CCC(F)(F)CC2)s1	–	metabolic stability	mouse, liver microsomes	1 h	compound remaining	91%
